# Results from different studies.
# Each line is one published result; not all experiments were run side by side. Numbers after ± are the reported error.
# TDP1: Tyrosyl-DNA phosphodiesterase 1 (TDP1, Homo sapiens, UniProt Q9NUW8)
# Sequence of UniProt Q9NUW8 (whole entry, looked up): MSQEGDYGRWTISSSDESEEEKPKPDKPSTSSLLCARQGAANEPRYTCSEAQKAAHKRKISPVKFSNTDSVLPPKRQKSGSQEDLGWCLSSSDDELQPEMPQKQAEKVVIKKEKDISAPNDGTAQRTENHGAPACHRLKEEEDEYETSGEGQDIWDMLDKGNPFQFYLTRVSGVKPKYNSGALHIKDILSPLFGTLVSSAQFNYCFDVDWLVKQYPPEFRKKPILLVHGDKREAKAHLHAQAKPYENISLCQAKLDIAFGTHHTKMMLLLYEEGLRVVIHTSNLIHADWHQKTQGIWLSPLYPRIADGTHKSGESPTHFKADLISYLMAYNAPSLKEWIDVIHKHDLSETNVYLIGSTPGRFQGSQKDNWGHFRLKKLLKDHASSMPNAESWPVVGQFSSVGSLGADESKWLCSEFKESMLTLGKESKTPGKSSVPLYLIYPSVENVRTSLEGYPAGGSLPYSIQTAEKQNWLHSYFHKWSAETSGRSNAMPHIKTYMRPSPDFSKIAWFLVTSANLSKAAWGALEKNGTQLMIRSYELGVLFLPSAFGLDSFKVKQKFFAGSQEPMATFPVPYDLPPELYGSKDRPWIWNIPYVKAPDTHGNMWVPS
SMILES,tested on,test,test system,setting,scale,measurement,result
Cc1cc(O)c(=O)c(O)cc1C(=O)C1CC1,HepDES19,"cell growth or viability, MTS",,72 h,,CC50,72.6 µM
C[N+](C)(CI)CCO,HepG2,cell viability,glucose medium,"24 h, mitochondrial toxicity",,IC50,> 150 µM
CC(=O)NC(CCc1ccc(Cl)c(Cl)c1)c1ccc(O)c(=O)cc1 (centres unmarked),HepDES19,"cell growth or viability, MTS",,72 h,,CC50,4.2 µM
CN1CCCNC(=O)c2cccc(c2)C(=O)NCCCN(C)CCCNc2cccc3c2C(=O)c2cccc(c2C3=O)NCCC1,Ca9-22,"cell growth or viability, CCK-8",,"1.5 µM, 48 h",,viability,27.3%
COC1C=COC2(C)Oc3c(C)c(O)c4c(c3C2=O)C2=NC3(CCN(CC(C)C)CC3)NC2=C(NC(=O)C(C)=CC=CC(C)C(O)C(C)C(O)C(C)C(OC(=O)c2cncnc2)C1C)C4=O (centres unmarked),THP-1 derived macrophages,,,,reference: intracellular over extracellular,intracellular/extracellular ratio,25
N#Cc1c(-c2ccco2)cc(-c2cccs2)[nH]c1=O,human neural progenitor cells,,,"20 µM, 72 h",,viability,< 25%
COC1C=COC2(C)Oc3c(C)c(O)c4c(c3C2=O)C2=NC3(CCN(CC(C)C)CC3)NC2=C(NC(=O)C(C)=CC=CC(C)C(O)C(C)C(O)C(C)C(OC(=O)c2cccnc2)C1C)C4=O (centres unmarked),THP-1 derived macrophages,,,30 min,reference: intracellular over extracellular,intracellular/extracellular ratio,44.2
N=C(N)NCCC[C@@H]1NC(=O)[C@@H](CCCNC(=N)N)NC(=O)[C@H](CCCNC(=N)N)NC(=O)[C@@H](C(c2ccccc2)c2ccccc2)NC(=O)[C@@H](C(c2ccccc2)c2ccccc2)NC(=O)[C@@H](C(c2ccccc2)c2ccccc2)NC(=O)[C@@H](CCCNC(=N)N)NC1=O,human red blood cells,haemolysis,,"2 h, 37 °C",,HC50,160 µg/mL
Cc1cc(Br)c2c(c1)C(O)(CC(=O)c1ccc(F)cc1)C(=O)N2 (centres unmarked),"Uncharacterized protein (Trypanosoma brucei brucei, UniProt Q386Q8)","inhibitor, coupled colorimetric",Trypanosoma brucei,,,IC50,> 100 µM
O=CCNCCOn1c(=O)n(OCCNCCO)c(=O)n(OCCNCCOn2c(=O)n(OCCNCCO)c(=O)n(OCCNCCO)c2=O)c1=O,HUVEC,"cell growth or viability, MTT",,"200 µg/mL, 48 h",,viability,15.1%
COc1ccccc1NC(=O)OC1C(C)C(OC)C=COC2(C)Oc3c(C)c(O)c4c(c3C2=O)C2=NC3(CCN(CC(C)C)CC3)NC2=C(NC(=O)C(C)=CC=CC(C)C(O)C(C)C(O)C1C)C4=O (centres unmarked),THP-1 derived macrophages,,,30 min,reference: intracellular over extracellular,intracellular/extracellular ratio,140
O=C1OCc2cc(O)c(=O)c(O)cc21,HepDES19,"cell growth or viability, MTS",,72 h,,CC50,100 µM
CC(C)(C=NOCc1ccc(-c2nc3cc(-c4ccccc4)ccn3c2Nc2ccc(C(=O)O)cc2)cc1)Sc1ccccc1,TDP1,"enzyme activity, inhibitor",,"100 µM, unpurified compound",,inhibition,68.4%
COc1ccc2nccc(CC[C@H]3OC[C@H](NC(=O)c4ccc5c(n4)NC(=O)CS5)CO3)c2c1,HepG2,cytotoxicity,,24 h,,IC50,> 128 µg/mL
O=S(=O)(NCc1ccncc1)c1ccc(C2CCCCC2)cc1,human iPSC-derived microglia-like cells,"caspase-3/7 activation, Caspase-Glo luminescence",,,,TC50,0.163 µM
CCCCCCCCCCCC(=O)Oc1c(C)c(OC)c2c(c1C)OC(=O)[C@@H](CCCCCCCCCC)[C@]2(O)/C=C/c1ccccc1 (relative stereo),normal human liver cell line,"cytotoxicity, SRB",,72 h,,IC50,> 50 µM
COC1C=COC2(C)Oc3c(C)c(O)c4c(c3C2=O)C2=NC3(CCN(CC(C)C)CC3)NC2=C(NC(=O)C(C)=CC=CC(C)C(O)C(C)C(O)C(C)C(OC(=O)Nc2cscn2)C1C)C4=O (centres unmarked),THP-1 derived macrophages,,,,reference: intracellular over extracellular,intracellular/extracellular ratio,92
Cn1ncc(-c2ccc3c(=O)[nH]nc(CN)c3c2)c1-c1c(F)c(Cl)cc(OC2CC2)c1C#N,MRC-5,"cell viability, CellTiter-Glo",,120 h,,CC50,> 3 µM
Cc1ccc(S(=O)(=O)Oc2cccccc2=O)cc1,HepDES19,"cell growth or viability, MTS",,72 h,,CC50,30.8 µM
NC1=C(Cl)C(=O)c2ccccc2C1=O,MRC-5,"cytotoxicity, MTT",,"48 h, 10% FBS",,IC50,18.5 ± 0.7 µM
N=C(N)NCCC[C@@H]1NC(=O)[C@H](CCCNC(=N)N)NC(=O)[C@H](CCCNC(=N)N)NC(=O)[C@@H](C(c2ccccc2)c2ccccc2)NC(=O)[C@H](Cc2c[nH]c3ccccc23)NC(=O)[C@@H](C(c2ccccc2)c2ccccc2)NC(=O)[C@H](CCCNC(=N)N)NC1=O,human red blood cells,haemolysis,,"2 h, 37 °C",,HC50,255 µg/mL
Cc1cc(O)c(O)c(=O)c(O)c1,HepDES19,"cell growth or viability, MTS",,72 h,,CC50,10.1 µM
COc1cccc2c1cc1c3c(cc4c(c32)OCO4)[C@@H]2c3c4c5c(cc6c(c5c5cccc(OC)c35)OCO6)CCN4[C@@H]2N1C (racemic),MRC-5,"cytotoxicity, MTT",,"50 µg/mL, 48 h",,inhibition,< 50%
O=c1c(O)ccc(-c2ccc(-c3ccccc3)cc2)cc1O,HepDES19,"cell growth or viability, MTS",,72 h,,CC50,20.5 µM
N=C(N)NCCC[C@@H]1NC(=O)[C@H](CCCNC(=N)N)NC(=O)[C@H](CCCNC(=N)N)NC(=O)[C@H](Cc2ccc3ccccc3c2)NC(=O)[C@H](Cc2ccc3ccccc3c2)NC(=O)[C@H](Cc2c[nH]c3ccccc23)NC(=O)[C@H](CCCNC(=N)N)NC1=O,human red blood cells,haemolysis,,"2 h, 37 °C",,HC50,150 µg/mL
Cc1cc(O)c(=O)c(O)cc1-c1cccc2ccccc12,HepDES19,"cell growth or viability, MTS",,72 h,,CC50,28.9 µM
C=CCOc1c(C)c(OC)c(C(=O)/C=C/c2ccccc2)c(OCC=C)c1C,normal human liver cell line,"cytotoxicity, SRB",,72 h,,IC50,> 50 µM
Cc1cc(O)c(=O)c(O)cc1C(=O)c1ccccc1,HepDES19,"cell growth or viability, MTS",,72 h,,CC50,35.5 µM
COc1c(C)c(OCc2ccccc2)c(C)c(OCc2ccccc2)c1C(=O)/C=C/c1ccccc1,normal human liver cell line,"cytotoxicity, SRB",,72 h,,IC50,> 50 µM
N=C(N)NCCC[C@@H]1NC(=O)[C@H](CCCNC(=N)N)NC(=O)[C@@H](CCCNC(=N)N)NC(=O)[C@@H](CCCNC(=N)N)NC(=O)[C@@H](Cc2ccc3ccccc3c2)NC(=O)[C@H](Cc2c[nH]c3ccccc23)NC(=O)[C@@H](Cc2ccc3ccccc3c2)NC1=O,human red blood cells,haemolysis,,"2 h, 37 °C",,HC50,220 µg/mL
Cn1c(C=NOCc2ccc3nc(-c4ccccc4)c(Nc4ccc(C(=O)O)cc4)n3c2)c(Cl)c2ccccc21 (mixture of isomers),TDP1,"enzyme activity, inhibitor",,"100 µM, unpurified compound",,inhibition,32.3%
COc1ccc2ncc(F)c(CC[C@@]3(O)CO[C@@H]4[C@@H](NCc5ccc(Cl)c(Cl)c5)CO[C@@H]43)c2n1,HepG2,cytotoxicity,,24 h,,IC50,13.2 µg/mL

# For quick reference, copied from above:
SMILES,tested on,test,test system,setting,scale,measurement,result
Cc1cc(O)c(=O)c(O)cc1-c1cccc2ccccc12,HepDES19,"cell growth or viability, MTS",,72 h,,CC50,28.9 µM
COC1C=COC2(C)Oc3c(C)c(O)c4c(c3C2=O)C2=NC3(CCN(CC(C)C)CC3)NC2=C(NC(=O)C(C)=CC=CC(C)C(O)C(C)C(O)C(C)C(OC(=O)c2cncnc2)C1C)C4=O (centres unmarked),THP-1 derived macrophages,,,,reference: intracellular over extracellular,intracellular/extracellular ratio,25
